Measurements from different studies.
Numbers after ± are the reported error.

| SMILES | assay | system | setting | how to read | endpoint | result |
| --- | --- | --- | --- | --- | --- | --- |
| CCOC(=O)C1=C(CN2CCOCC2)NC(c2nccs2)=NC1c1ccc(F)cc1Br (stereo not drawn) |  | human | concentration not given, 8 days |  | maximum ALT | 511 IU/mL |
| [123I]c1cncc(OC[C@@H]2CCN2)c1 | SPECT | human, cerebellum | intravenous bolus, 9.1 mCi | relative to: tissue over plasma | tissue/plasma ratio | 11.1 |
| Cc1ccc(Nc2nccc(N(C)c3ccc4c(C)n(C)nc4c3)n2)cc1S(N)(=O)=O |  | patients without gastric acid suppression, plasma | oral, 800 mg once daily, 24 h, fasted, first steady state, geometric mean |  | Cmin | 28200 ng/mL |
| CSCC[C@@H]1NC(=O)[C@H](CC(=O)O)NC(=O)CNC(=O)[C@H](CCCNC(=N)N)NC(=O)[C@H](C)NC(=O)[C@H](CCC(=O)O)NC(=O)[C@H](CCCNC(=N)N)NC(=O)[C@@H]2CSSC[C@@H]3NC(=O)[C@H](CO)NC(=O)[C@H]([C@@H](C)O)NC(=O)[C@@H]4CCCN4C(=O)[C@H](C)NC(=O)[C@H](Cc4c[nH]c5ccccc45)NC(=O)[C@H](CC(=O)O)NC(=O)CNC(=O)[C@H](CCCNC(=N)N)NC(=O)CNC(=O)[C@H](CCC(N)=O)NC(=O)[C@@H]4CCCN4C(=O)[C@@H](NC(=O)CNC(=O)C(C)F)CSSC[C@H](NC(=O)CNC(=O)[C@H](C)NC(=O)[C@H](CC(C)C)NC(=O)[C@H](CSSC[C@@H](C(=O)NCC(N)=O)NC(=O)[C@H]([C@@H](C)O)NC(=O)[C@H](CCCNC(=N)N)NC(=O)[C@@H]4CCCN4C1=O)NC(=O)[C@H](CC(=O)O)NC(=O)[C@H](CO)NC(=O)[C@H](CC(=O)O)NC(=O)[C@H](CCC(N)=O)NC(=O)[C@H](CO)NC3=O)C(=O)N[C@@H](C(C)C)C(=O)N2 (stereo partly drawn) [fluorine-18 labelled] |  | nude mice U-87 MG xenograft, tumor | intravenous, 2.5 h |  | tissue uptake | 1.02 ± 0.19 %ID/g |
| Oc1c(Cl)cc(Cl)c(Cl)c1Cc1c(O)c(Cl)cc(Cl)c1Cl |  | C57BL/6 mouse, brain | intravenous, 10 mg/kg, single dose |  | half-life | 5.64 h |
| CC(C)C[C@@H](N)C(=O)N[C@H]1C(=O)N[C@@H](CC(N)=O)C(=O)N[C@H]2C(=O)N[C@H]3C(=O)N[C@H](C(=O)N[C@H](C(=O)O)c4cc(O)cc(O)c4-c4cc3ccc4O)[C@H](O)c3ccc(c(Cl)c3)Oc3cc2cc(c3O[C@@H]2O[C@H](CO)[C@@H](O)[C@H](O)[C@H]2O[C@H]2C[C@](C)(N)[C@H](O)[C@H](C)O2)Oc2ccc(cc2Cl)[C@H]1O |  | New Zealand White rabbit, iris | continuous topical ocular, dose not given, 24 h | relative to: eye drops | AUC(0-24) ratio | ~10 fold |
| COc1ccc2c3c1O[C@H]1C[C@@H](O)C=C[C@@]31CCN(C)C2 | in situ brain perfusion | CF-1 mouse, wild type, male | 1 µM, pH 7.4 |  | brain uptake clearance Kin | 19 mL/100 g/min |
| Cc1sc2c(c1C)C(c1ccc(Cl)cc1)=N[C@@H](CC(=O)OC(C)(C)C)c1nnc(C)n1-2 |  | Ringer's with 10% beta-cyclodextrin | time not given, plastic vessel, low-bind vial | relative to: nominal 50 ng/mL | recovery | 98.2% |
| Cn1cc(-c2ccc(Cn3cc(C(=O)N[C@H]4CCCC[C@@H]4O)c4c(F)cc(F)cc43)cn2)cn1 |  | rat Sprague-Dawley, male, brain, plasma | intravenous, 0.20 to 0.25 mg/kg, 0.25 h, cassette dosing |  | brain/plasma ratio Kp | 0.113 |
| CN[C@@](C)(C[18F])C(=O)O |  | SCID mouse SK-OV-3 xenograft, spleen | 60 min, post injection |  | tissue uptake | 11 ± 3.2 %ID/g |
| ONc1ccc2c(c1)Cc1ccccc1-2 | reconstructed skin micronucleus | EpiDerm reconstructed skin | concentration not given, 48 h, added: cytochalasin B 3 µg/mL |  | cytotoxicity threshold dose | 1.3 µg/cm2 |
| O=C(OC(C(F)(F)F)C(F)(F)F)N1CCN(Cc2ccc(C(F)(F)F)cc2N2CCCC2)CC1 |  | PBS | 20 h, pH 7.4, 20 °C |  | solubility | < 1 µg/mL |

For quick reference, copied from above:
| SMILES | assay | system | setting | how to read | endpoint | result |
| --- | --- | --- | --- | --- | --- | --- |
| ONc1ccc2c(c1)Cc1ccccc1-2 | reconstructed skin micronucleus | EpiDerm reconstructed skin | concentration not given, 48 h, added: cytochalasin B 3 µg/mL |  | cytotoxicity threshold dose | 1.3 µg/cm2 |
